Published values from different studies.
Each numbered part is a random draw from the data of one study; scales do not carry over between parts.

Set 1
Target: PABPC1L2, full length, GST fusion (mouse, UniProt A0ABA7IW68)
Technique: RNAcompete
Form: RNA
Matrix: in vitro
Concentration: 20 nM
Setting: 7-mer, probes averaged, single round
Reference: mean of 7-mers
Direction: higher = stronger binding
Residues (chain): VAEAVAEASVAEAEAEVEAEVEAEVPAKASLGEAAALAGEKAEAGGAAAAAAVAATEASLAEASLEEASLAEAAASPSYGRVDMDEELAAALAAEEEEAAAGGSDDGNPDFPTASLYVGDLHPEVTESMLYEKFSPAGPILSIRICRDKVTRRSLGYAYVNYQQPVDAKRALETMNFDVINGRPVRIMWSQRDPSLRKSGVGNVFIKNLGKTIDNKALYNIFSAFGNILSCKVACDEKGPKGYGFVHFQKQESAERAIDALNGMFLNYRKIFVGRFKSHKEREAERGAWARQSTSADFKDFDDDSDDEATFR
Oligonucleotide | 7-mer Z-score
AGGAACC | 0.0551
ACGCGUA | -0.05
UUUGUAU | -0.217
CCGUGUA | -0.26
GACACUA | -0.0464

Set 2
Target: Histone acetyltransferase KAT6A, both winged helices, GST fusion (KAT6A, Homo sapiens, UniProt Q92794, residues 1-181)
Technique: protein binding microarray
Form: double-stranded DNA, one strand shown
Matrix: in vitro
Concentration: not given
Setting: 8-mer, flanks averaged, mean of 2 arrays, mostly near background
Reference: not given
Direction: higher = stronger binding
Target sequence (chain): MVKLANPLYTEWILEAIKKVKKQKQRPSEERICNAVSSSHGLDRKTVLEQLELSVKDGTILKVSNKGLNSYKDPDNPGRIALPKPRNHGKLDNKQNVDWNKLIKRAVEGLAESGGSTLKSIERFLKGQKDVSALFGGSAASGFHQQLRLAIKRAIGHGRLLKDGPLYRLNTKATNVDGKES
Oligonucleotide | E-score
GGCTACCA | -0.0845
AACCTGAA | -0.184
ACCCAAAA | -0.139
GTCGCTGA | 0.0379
AGAAAGCT | -0.0342
GAAATACA | -0.163

Set 3
Target: Sal-like protein 4, full length isoform B (SALL4, Homo sapiens, UniProt Q9UJQ4-2, residues 1-616)
Technique: universal PBM
Form: double-stranded DNA, one strand shown
Matrix: in vitro
Concentration: not given
Setting: 8-mer, flanks averaged, mean of replicates
Direction: higher = stronger binding
Residues (chain): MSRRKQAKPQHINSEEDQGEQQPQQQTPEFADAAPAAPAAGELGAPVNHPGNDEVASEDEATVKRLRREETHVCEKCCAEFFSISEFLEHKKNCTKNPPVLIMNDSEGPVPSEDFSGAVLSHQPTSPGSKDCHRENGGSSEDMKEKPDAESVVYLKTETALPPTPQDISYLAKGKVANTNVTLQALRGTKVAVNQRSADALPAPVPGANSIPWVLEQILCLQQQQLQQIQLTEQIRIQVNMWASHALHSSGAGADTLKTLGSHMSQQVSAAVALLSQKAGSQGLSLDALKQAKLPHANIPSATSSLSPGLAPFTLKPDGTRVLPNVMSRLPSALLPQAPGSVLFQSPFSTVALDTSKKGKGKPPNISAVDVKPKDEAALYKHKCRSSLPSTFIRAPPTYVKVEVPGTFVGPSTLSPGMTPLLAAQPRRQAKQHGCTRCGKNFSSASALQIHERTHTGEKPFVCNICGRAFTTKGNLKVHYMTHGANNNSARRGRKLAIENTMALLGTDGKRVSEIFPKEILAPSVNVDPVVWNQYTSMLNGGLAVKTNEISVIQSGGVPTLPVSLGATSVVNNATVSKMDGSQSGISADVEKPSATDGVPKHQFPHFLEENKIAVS
Oligonucleotide | E-score
CCAAGAAC | -0.196
CAGCGTGA | -0.125
ACTTCTGG | -0.217
CGCCTATC | -0.0659
AGCGGGCC | -0.339
AAATCTAA | 0.252
CATCTACA | 0.158

Mixed results
Substance | target | assay | test system | conditions | scale | endpoint | result
PhoQ, residues 284 288 289 292 302 303 QWGLFV | PhoP, residues 12 14 15 18 19 HEGLL (Escherichia coli, UniProt P23836) | Sort-seq, item: YFP reporter | E. coli | PhoQ-PhoP variant library, with: 10 µM Mg2+ | reference: high Mg2+ state, higher = stronger signaling | fold induction | 0.894

A few entries again (set 3):
Oligonucleotide | E-score
CATCTACA | 0.158
CAGCGTGA | -0.125
CCAAGAAC | -0.196
